Assay results pooled from the literature.
Parts stem from different laboratories: compare values within a part only. Substitutions count along the parent as printed.

Series 1 — technique: RNA Bind-n-Seq; form: RNA; sample: in vitro; tested at: 100 nM; baseline: input RNA pool; reading: higher = stronger binding
Target: RING finger protein unkempt homolog, zinc fingers 1-6, SBP tag (UNK, Homo sapiens, UniProt Q9C0B0, residues 30-357)
Chain of UniProt Q9C0B0 (30-357, looked up): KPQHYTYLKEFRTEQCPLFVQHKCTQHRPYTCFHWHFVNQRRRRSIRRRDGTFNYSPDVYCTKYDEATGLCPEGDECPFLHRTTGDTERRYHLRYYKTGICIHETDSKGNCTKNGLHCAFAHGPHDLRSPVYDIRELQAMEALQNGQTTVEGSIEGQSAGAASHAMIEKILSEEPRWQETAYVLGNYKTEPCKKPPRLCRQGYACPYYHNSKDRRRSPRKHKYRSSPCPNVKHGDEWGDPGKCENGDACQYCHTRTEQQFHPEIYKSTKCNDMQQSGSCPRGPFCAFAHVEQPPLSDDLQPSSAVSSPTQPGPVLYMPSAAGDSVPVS
Notes: RNA with constant flanks, vertebrate orthologous sites, ends assumed
All sequences stand within: GGGAGUUCUACAGUCCGACGAUC … CAACAGAGGAUUGAGCAUCA
`GGGGAUGGGGGGUGGGUAAGGGAUGUGGAUGAUAGGAUGUUAUUGGGAUUUUUAAGUGUUCCAGGGGUGGUUUUCCUUUUUCCUGUUUUUUUGUUUGUUUGUUUGUUUGUUUCUGUUCUU` has a bound/input enrichment of 1.06 ratio.
`AUGCAGGAAUGGCAUGUGAUGUUUGAAAUACCCACAGUACUCACUUUGUCCAAACAAUUCUACUAAUUGCCUAGAUAUACUUUUUCUUACCUGUUAUUUAUCAAUUUUUCCCAGUAUUUU` has a bound/input enrichment of 1.17 ratio.
`GAACAAAAAUGUUUCCACUGGGUUUUGCCUGUAAGAAAAAAAUGAACCUGAGCACACAAAUAGAGCUUUUUAAAUAGCACUAACCAAUGCCUUUUAGAUGUAUUUUUGAUGUAUAUAUCU` has a bound/input enrichment of 0.992 ratio.
`GUCGUCUGAUUGGAUAAAGACUGUCCCAAGUUACAACCAAACAAAUAGUUCCAUGGACUUUAGAAAUUAUAUGAUGAGAGACGAGAAUCUGGAACCGCUCCCCAAAAACUGGGAAAUGGC` gave a bound/input enrichment of 1.11 ratio.
`CCGCCAACUCCCUGAUCGGCCGGGCGGCGCACAUCGCCGUCCUCGACUCCGAGAUUUUCCUGGAGAAGUUCUUCCUGGUGGCCGGACUGAAGUUCUUUCAGUAGAACCAGAAGAAAGAGA` has a bound/input enrichment of 0.16 ratio.
For `AGAAAAUUUUAACCAGGAAUCUGAAGGUAGAAAUACAGGACCCUGGUUAUCUUCCUCACUUAGAAAUAGAUGCACACCUUUGUUCUCUAGAAGGAGGCGAGAGGGACGAGAUGAAUCUUC`, the bound/input enrichment was 0.878 ratio.
The bound/input enrichment of `UGAGAACUCUUGCAGUCUUAGAUGUUAUACAAAAAUAUGUAUCUGAAUUGUAAGAGUUGUUAGCACAGGUGUUUUUUUGUUUGUUUUUUUUUUAAGCACUUGUUUUGGGUACAAGGCAUU` is reported as 0.257 ratio.
For `GUGUUUUGUACAGGGCAUUCUCUGUACUAGUUUGUUGUGGUUAUAAAACAAUUAGCAAAAUAGCCUACAUUUGUAUUUAUUUUCUAUUCCAUAUUUUUGCGCCACGUUGUUUUCUCUCAA`, the bound/input enrichment was 0.849 ratio.
The bound/input enrichment of `UUGUGGGGACUCGGGUGGGGAAAGGGAGAUAUAUAGAUGUUAUUGGCGUGUUUAAGUAUUUGGAGCUUUUUGUUUGCCCCCAUUUUUUUCUGUUUUGUAUUUUCCCUUUAAUUGAAUGCU` is reported as 1.27 ratio.
`GAAACUCCCCAUUGUCACUGAGAACCACCAAAUCUGACUUUUACAUUUGGUCUCAGAAUUUAGGUUCCUGCCCUGUUGGUUUUUUUUUUUUUUUUAAACAGUUUUCAAAAGUUAUUAAAG` has a bound/input enrichment of 0.895 ratio.
The bound/input enrichment of `CUCUAGUUCUUAAAAACCAACACUCGUAAAAGAUUUAGGAAAAAAGUUUACAACAUAAUCUAGUUUACCGAAGAAGCCUUGUGCUAGAAUACUUUUUAAAAAGUAUUUUUGAAUACCAUU` is reported as 1.09 ratio.

Series 2 — technique: DHFR PCA, deep sequencing; sample: yeast; with: (+)-ABA 2500 µM; baseline: wild-type fitted maximum; reading: higher = stronger binding
Target: ABI1, truncated, D143A, DHFR fusion (Arabidopsis thaliana)
Notes: methotrexate growth selection, single substitutions
Parent: PYL1, truncated, DHFR fusion (Arabidopsis thaliana); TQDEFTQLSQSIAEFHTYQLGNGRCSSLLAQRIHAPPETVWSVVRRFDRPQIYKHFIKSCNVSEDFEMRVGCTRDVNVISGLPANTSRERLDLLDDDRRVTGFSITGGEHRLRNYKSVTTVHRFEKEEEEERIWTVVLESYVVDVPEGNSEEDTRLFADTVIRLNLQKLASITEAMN; partner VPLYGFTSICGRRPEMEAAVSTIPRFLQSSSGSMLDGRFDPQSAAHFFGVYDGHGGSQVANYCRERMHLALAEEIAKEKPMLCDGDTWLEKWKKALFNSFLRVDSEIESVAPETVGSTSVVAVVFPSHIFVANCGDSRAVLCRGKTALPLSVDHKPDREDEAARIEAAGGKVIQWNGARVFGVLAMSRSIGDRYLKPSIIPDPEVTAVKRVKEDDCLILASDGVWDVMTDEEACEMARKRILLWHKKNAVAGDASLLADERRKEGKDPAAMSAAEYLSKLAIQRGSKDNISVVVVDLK
Under “relative binding score”, `N22C` is recorded as 98.8%.
Under “relative binding score”, `E125G` is recorded as 99.9%.
For `N114G`, “relative binding score” read 104%.
For `Q51Y`, “relative binding score” read 98%.
`A158R`: “relative binding score” 1.87%.
For `E128K`, “relative binding score” read 98.6%.
For `V142E`, “relative binding score” read 93.1%.
Under “relative binding score”, `F66G` is recorded as 101%.
For `A30D`, “relative binding score” read 92.6%.
`G21K` — result for “relative binding score”: 102%.
`I105K`: “relative binding score” 23.1%.
`E139G`: “relative binding score” 62.7%.
`V118F` — result for “relative binding score”: 90.1%.
Under “relative binding score”, `L94D` is recorded as 52.4%.
For `V161H`, “relative binding score” read 55.1%.
`A84E` — result for “relative binding score”: 62.5%.
`R98V` — result for “relative binding score”: 108%.
For `Y141W`, “relative binding score” read 80.6%.
For `S171Q`, “relative binding score” read 93%.
`A35T` — result for “relative binding score”: 89.1%.

Series 3 — technique: aptamer microarray, sandwich; form: DNA with 2'F-ANA; sample: in vitro; tested at: 200 nM; with: Cy3 exosite-II aptamer, 400 nM; reading: higher = stronger binding; strand: GGTTGGTGTGGTTGG
Target: Prothrombin, mature alpha-thrombin (F2, Homo sapiens, UniProt P00734)
Notes: whole 15-mer aptamer, many near background
For `2'F-ANA at 1 3 5 7 9 10 11 12 13`, “mean fluorescence intensity” read 58.8 a.u.
`2'F-ANA at 8 12`: “mean fluorescence intensity” 1040 a.u.
`2'F-ANA at 1 2 4 7 10 11 14`: “mean fluorescence intensity” 48.3 a.u.
Under “mean fluorescence intensity”, `2'F-ANA at 1 3 7 9 10 11 12 13 15` is recorded as 111 a.u.
`2'F-ANA at 1 3 7 8 9 12 13`: “mean fluorescence intensity” 498 a.u.
`2'F-ANA at 3 5 13`: “mean fluorescence intensity” 130 a.u.
`2'F-ANA at 1 3 5 7 9 10 11 14 15`: “mean fluorescence intensity” 83.6 a.u.
For `2'F-ANA at 3 7 9 11 14 15`, “mean fluorescence intensity” read 574 a.u.
Under “mean fluorescence intensity”, `2'F-ANA at 2 3 4 6 7 8 9 12 13 14 15` is recorded as 316 a.u.
`2'F-ANA at 2 4 5 7 11 13 15`: “mean fluorescence intensity” 52.3 a.u.
Under “mean fluorescence intensity”, `2'F-ANA at 1 2 8 12 14 15` is recorded as 113 a.u.
Under “mean fluorescence intensity”, `2'F-ANA at 1 6 7 8 9 15` is recorded as 199 a.u.
`2'F-ANA at 1 2 6 7 8 11`: “mean fluorescence intensity” 217 a.u.
`2'F-ANA at 1 6 8 12 13 14`: “mean fluorescence intensity” 73.1 a.u.
For `2'F-ANA at 2 4 8 9 10 11 15`, “mean fluorescence intensity” read 98.1 a.u.
Under “mean fluorescence intensity”, `2'F-ANA at 2 3 6 7 8 9 13` is recorded as 578 a.u.
`2'F-ANA at 1 4 5 6 11 12 14 15` — result for “mean fluorescence intensity”: 48.5 a.u.
Under “mean fluorescence intensity”, `2'F-ANA at 2 3 7 9 11 12` is recorded as 876 a.u.
For `2'F-ANA at 2 3 5 7 9 10 11 14`, “mean fluorescence intensity” read 68 a.u.

Series 4 — technique: universal PBM; form: double-stranded DNA, one strand shown; sample: in vitro; tested at: 600 nM; reading: higher = stronger binding
Target: Sal-like protein 4, full length isoform A (SALL4, Homo sapiens, UniProt Q9UJQ4, residues 1-1053)
Chain of UniProt Q9UJQ4 (whole entry, looked up): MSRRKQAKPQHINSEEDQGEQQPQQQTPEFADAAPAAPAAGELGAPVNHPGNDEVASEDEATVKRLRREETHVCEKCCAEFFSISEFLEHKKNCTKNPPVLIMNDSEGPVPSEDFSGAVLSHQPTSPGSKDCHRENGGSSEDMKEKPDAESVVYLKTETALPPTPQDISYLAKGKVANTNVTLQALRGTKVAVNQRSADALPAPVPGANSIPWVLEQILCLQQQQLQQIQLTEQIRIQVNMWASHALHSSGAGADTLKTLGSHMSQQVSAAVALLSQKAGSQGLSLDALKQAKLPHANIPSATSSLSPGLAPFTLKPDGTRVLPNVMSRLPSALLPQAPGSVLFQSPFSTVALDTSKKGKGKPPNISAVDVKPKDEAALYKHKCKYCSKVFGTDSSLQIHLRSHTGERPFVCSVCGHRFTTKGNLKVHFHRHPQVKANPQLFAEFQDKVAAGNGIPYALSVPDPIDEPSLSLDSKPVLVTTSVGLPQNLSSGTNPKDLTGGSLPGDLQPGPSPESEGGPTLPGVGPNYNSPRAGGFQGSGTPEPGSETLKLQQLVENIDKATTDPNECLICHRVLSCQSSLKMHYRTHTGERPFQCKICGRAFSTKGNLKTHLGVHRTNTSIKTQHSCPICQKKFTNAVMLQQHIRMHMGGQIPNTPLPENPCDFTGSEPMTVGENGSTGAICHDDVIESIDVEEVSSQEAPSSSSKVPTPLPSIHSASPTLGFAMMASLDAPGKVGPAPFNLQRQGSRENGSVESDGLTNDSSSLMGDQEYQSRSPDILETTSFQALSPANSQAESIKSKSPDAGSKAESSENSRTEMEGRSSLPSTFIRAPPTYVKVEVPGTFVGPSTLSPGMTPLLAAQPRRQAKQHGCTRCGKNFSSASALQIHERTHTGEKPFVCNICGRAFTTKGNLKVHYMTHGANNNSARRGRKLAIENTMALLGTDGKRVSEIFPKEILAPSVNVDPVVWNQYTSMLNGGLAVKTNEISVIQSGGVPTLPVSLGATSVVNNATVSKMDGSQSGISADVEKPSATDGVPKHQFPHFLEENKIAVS
Notes: 8-mer, flanks averaged, mean of replicates
With `CCTTGCAC` the E-score was -0.124.
The E-score of `CCTGGAGC` is reported as -0.189.
`TGACGCCA` has an E-score of -0.23.
For `AGTTCAAC`, the E-score was 0.0428.
`ATCTGTGA` has an E-score of 0.0796.
The E-score of `ATCCCTGC` is reported as -0.0253.
With `CCTGACAA` the E-score was -0.00035.
With `GACGAAAC` the E-score was -0.078.
`ATGGTAAT` has an E-score of 0.345.
With `CGTCGAAA` the E-score was 0.00144.
`TGAGGTAA` gave an E-score of 0.0112.
`AATTATCG` has an E-score of 0.37.
`AGTACCGA` gave an E-score of -0.122.
`GTTGCGAA` gave an E-score of 0.0186.
With `AGGAGCTG` the E-score was -0.238.
With `TAACTGTA` the E-score was 0.251.
`ACGACACC` gave an E-score of -0.156.
For `CGCTGATA`, the E-score was 0.0603.
`GTACCCAC` gave an E-score of -0.113.

Series 5 — technique: RNAcompete; form: RNA; sample: in vitro; tested at: 20 nM; notes: 7-mer, probes averaged, single round; baseline: mean of 7-mers; reading: higher = stronger binding
Target: PABPC1L2, full length, GST fusion (mouse, UniProt A0ABA7IW68)
Construct (chain): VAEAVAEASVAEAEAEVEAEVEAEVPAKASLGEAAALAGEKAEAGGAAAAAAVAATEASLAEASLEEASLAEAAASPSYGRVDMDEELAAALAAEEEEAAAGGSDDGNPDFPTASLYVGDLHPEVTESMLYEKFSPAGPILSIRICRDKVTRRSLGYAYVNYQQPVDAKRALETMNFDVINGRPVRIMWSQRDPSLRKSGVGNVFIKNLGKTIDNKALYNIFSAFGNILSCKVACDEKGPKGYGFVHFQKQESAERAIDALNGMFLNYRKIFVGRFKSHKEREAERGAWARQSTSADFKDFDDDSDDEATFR
`CCUUAGU` gave a 7-mer Z-score of -0.257.
With `UACCGAU` the 7-mer Z-score was -0.237.
With `UCCCAUC` the 7-mer Z-score was -0.438.
`GAUCCCA` has a 7-mer Z-score of -0.269.
With `GUACUAA` the 7-mer Z-score was -0.0138.
For `GUGUAUU`, the 7-mer Z-score was -0.19.
With `UGGAGGU` the 7-mer Z-score was 0.037.
The 7-mer Z-score of `UCAGACG` is reported as -0.133.
`UGCCUAA` gave a 7-mer Z-score of -0.179.
The 7-mer Z-score of `UGGCCGG` is reported as -0.151.
`UGUCGGG` gave a 7-mer Z-score of -0.104.
For `UUCUAAA`, the 7-mer Z-score was 0.401.
The 7-mer Z-score of `GCCCAUU` is reported as -0.231.
`UCCUAUG` gave a 7-mer Z-score of -0.32.
`GACGCCG` has a 7-mer Z-score of -0.219.
For `AACCCGG`, the 7-mer Z-score was -0.0228.

Series 6 — target: CCNA2, cyclin fold, Cln2 fusion (human); technique: yeast growth competition, sequencing; sample: yeast; notes: strong parent motif; baseline: not given; reading: higher = stronger binding
Parent: ANKRD17 docking peptide (human); PSVRRQLFVTVVK
Under “normalised enrichment score”, `PSVRRQLFVTVVA [K13A]` is recorded as 4.99.
`PSVRRQLFVTAVK [V11A]` — result for “normalised enrichment score”: 5.76.
Under “normalised enrichment score”, `PSVARQLFVTVVK [R4A]` is recorded as 3.27.
`ASVRRQLFVTVVK [P1A]` — result for “normalised enrichment score”: 4.63.
For `PSVRRQAFVTVVK [L7A]`, “normalised enrichment score” read 1.58.
`PSVRAQAFVTVVK [R5A L7A]` — result for “normalised enrichment score”: 0.612.
`PSVRRQLLVTVVK [F8L]`: “normalised enrichment score” 0.741.
For `PSVRRQLFATVVK [V9A]`, “normalised enrichment score” read 4.67.
For `PSVRKQLFVTVVK [R5K]`, “normalised enrichment score” read 3.45.
`PSVRRQLFVAVVK [T10A]` — result for “normalised enrichment score”: 5.36.

Repeated from above (series 6):
`PSVRRQLFVAVVK [T10A]` — result for “normalised enrichment score”: 5.36.
Under “normalised enrichment score”, `PSVRRQLFVTVVA [K13A]` is recorded as 4.99.
`PSVRAQAFVTVVK [R5A L7A]` — result for “normalised enrichment score”: 0.612.
`PSVRRQLFVTAVK [V11A]` — result for “normalised enrichment score”: 5.76.
`PSVRRQLLVTVVK [F8L]`: “normalised enrichment score” 0.741.
For `PSVRKQLFVTVVK [R5K]`, “normalised enrichment score” read 3.45.
Under “normalised enrichment score”, `PSVARQLFVTVVK [R4A]` is recorded as 3.27.
`ASVRRQLFVTVVK [P1A]` — result for “normalised enrichment score”: 4.63.
For `PSVRRQAFVTVVK [L7A]`, “normalised enrichment score” read 1.58.
For `PSVRRQLFATVVK [V9A]`, “normalised enrichment score” read 4.67.
